# Published values from different studies.
# Each numbered part is a random draw from the data of one study; scales do not carry over between parts.

# Sample 1 — technique: RNAcompete; form: RNA; medium: in vitro; concentration: 20 nM; setting: 7-mer, probes averaged, single round; reference: mean of 7-mers; direction: higher = stronger binding
# Target: PABPC1L2, full length, GST fusion (mouse, UniProt A0ABA7IW68)
# Residues (chain): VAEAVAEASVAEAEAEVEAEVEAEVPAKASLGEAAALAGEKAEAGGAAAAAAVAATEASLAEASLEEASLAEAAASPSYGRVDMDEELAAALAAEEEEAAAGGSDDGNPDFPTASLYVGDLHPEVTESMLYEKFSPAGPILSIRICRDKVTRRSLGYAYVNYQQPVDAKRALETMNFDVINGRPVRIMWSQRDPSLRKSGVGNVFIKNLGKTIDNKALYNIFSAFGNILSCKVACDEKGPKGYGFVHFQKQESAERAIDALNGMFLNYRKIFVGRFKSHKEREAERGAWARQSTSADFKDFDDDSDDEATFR
Sequence,7-mer Z-score
AUGCAGC,-0.0971
CUGCAGG,-0.0518
CCUUCUA,-0.409
CCAUGGA,-0.0264
ACUUUAG,0.0805

# Sample 2 — technique: RNA Bind-n-Seq; form: RNA; medium: in vitro; concentration: 365 nM; reference: no-protein control; direction: higher = stronger binding
# Target: RNA binding protein fox-1 homolog 2, RRM domain, GST-SBP tag (RBFOX2, Homo sapiens, UniProt O43251-10, residues 100-194)
# Setting: natural RNA segment, single round, ends assumed
# Construct (chain): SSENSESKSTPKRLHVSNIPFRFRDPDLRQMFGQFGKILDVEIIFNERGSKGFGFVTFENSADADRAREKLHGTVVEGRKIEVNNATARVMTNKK
Sequence,RBNS enrichment (R)
GGGAGUUCUACAGUCCGACGAUCUAUCGAUAGAGGUAGAAAUGGUUUCCCUCCAAGGUUGGGUCAAUGUGUAAAUUGCUAUUCAACACUUGGAUAUUACCAGUCUGUGGUUUAAUUAUUCCUCCUAGUGAGCUUGGAAUUCUCGGGUGCCAA,0.245
GGGAGUUCUACAGUCCGACGAUCCUGAAGAUUAGUCUUUUAAUUUUAGACCAUUAUAUCUGCUGAGCACAGGAUUCUUAUCAUUUGUAAAUCUAAAACCGUCUGUGAACGCAUUUCUAUGCUUCUUCCUUUAUUGGAAUUCUCGGGUGCCAA,0.356
GGGAGUUCUACAGUCCGACGAUCGCUAGGUGCCCCUUGGAUAGAUGGGUGGCCAAGCCCCCUGGCCUGAAGGCCCGUCUCUGCAUCUCUACAGUUCUCUUUGGUUUUCAUUUUUCAUUUGGCUUAGUUUAGGGUGGAAUUCUCGGGUGCCAA,0.744
GGGAGUUCUACAGUCCGACGAUCCCAAUGCAUAGUUUGGCAGAAAAAUCAGCCGUUCAUUUAGAAGAAUCUUAGCAGAGAUUGGGAUGCCUUACUCAAUAAAGCUAAGAUGACUAUGCUGCUGGCUGUCUUUGUGGAAUUCUCGGGUGCCAA,0.664

# Sample 3 — technique: protein-binding microarray; form: double-stranded DNA, one strand shown; medium: in vitro; concentration: not given; direction: higher = stronger binding
# Target: Transcriptional repressor CTCF (CTCF, Homo sapiens, UniProt P49711, residues 1-727, full length assumed)
# Setting: k-mer, scored over probes, only values ≥0.25
# Residues (chain): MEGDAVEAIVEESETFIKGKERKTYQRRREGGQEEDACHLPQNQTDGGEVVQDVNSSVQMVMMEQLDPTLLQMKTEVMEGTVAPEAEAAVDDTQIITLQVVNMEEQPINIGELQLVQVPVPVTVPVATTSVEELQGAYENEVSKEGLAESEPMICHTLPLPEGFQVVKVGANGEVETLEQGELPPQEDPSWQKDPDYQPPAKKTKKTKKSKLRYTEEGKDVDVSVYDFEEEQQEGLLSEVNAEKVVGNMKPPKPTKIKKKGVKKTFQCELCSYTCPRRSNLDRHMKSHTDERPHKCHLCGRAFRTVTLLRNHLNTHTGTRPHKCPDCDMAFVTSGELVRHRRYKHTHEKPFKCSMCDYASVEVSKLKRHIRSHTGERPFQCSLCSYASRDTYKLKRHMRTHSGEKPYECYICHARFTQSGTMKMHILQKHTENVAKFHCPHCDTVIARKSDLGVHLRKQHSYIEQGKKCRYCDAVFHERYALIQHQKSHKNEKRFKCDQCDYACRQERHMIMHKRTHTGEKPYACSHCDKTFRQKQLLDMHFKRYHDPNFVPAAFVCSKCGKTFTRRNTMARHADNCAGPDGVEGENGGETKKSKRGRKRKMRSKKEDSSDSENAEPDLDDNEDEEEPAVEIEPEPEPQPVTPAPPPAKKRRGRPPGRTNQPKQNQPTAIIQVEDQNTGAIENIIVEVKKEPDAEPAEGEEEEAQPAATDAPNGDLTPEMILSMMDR
Sequence,E-score
ATACTCAC,0.274
AATTAACT,0.319
AATTATTC,0.275
GCGCATTA,0.411

# Further values, each from its own experiment
Substance,target,assay,test system,conditions,scale,quantity,value
"PhoQ, residues 284 288 289 292 302 303 GANMMA","PhoP, residues 12 14 15 18 19 SMASL (Escherichia coli, UniProt P23836)","Sort-seq, item: YFP reporter",E. coli,"PhoQ-PhoP variant library, together with: 10 µM Mg2+","reference: high Mg2+ state, higher = stronger signaling",fold induction,2.67

# Some of these lines once more (sample 1):
Sequence,7-mer Z-score
CCUUCUA,-0.409
